Measured values from different studies.
Numbered parts are unrelated; each lists some results of a single study.

Series 1
Target: Fragile X messenger ribonucleoprotein 1, C-terminal low-complexity region (Fmr1, Mus musculus, UniProt P35922)
Method: RNA Bind-n-Seq
Form: RNA
Sample: in vitro
Tested at: 200 nM
Setting: whole 134-nt RNA, ends assumed
With: 150 mM KCl
Relative to: input library
Direction: higher = stronger binding
Quantity: log2 enrichment
Shared flanks, not repeated: GGGAGUUCUACAGUCCGACGAUC … UGGAAUUCUCGGGUGUCAAGG
UCAAGUCCUGUGCUACACAUCGUAUGUACCGAAUCGGGGUUGGUUGGGUUGGGGAAAGUAUUAUGUUACGCCGUUCGGAUCUGCACUUCC: 0.919
CCUGUGCUACACAUCGUAUGUACCGAAUCGGCCCCCCCGGGCCCCCCCGGGGCCCCCCCGGAAAGUAUUAUGUUACGCCGUUCGGAUCUG: -0.675
CUCAAGUCCUGUGCUACACAUCGUAUGUACCGAAUCGGGGCGGGCGGGCGGGGAAAGUAUUAUGUUACGCCGUUCGGAUCUGCACUUCCA: 0.318
AAGUCCUGUGCUACACAUCGUAUGUACCGAAUCAAAUUUAAAUUUAAAUUUUUAAAAAAGUAUUAUGUUACGCCGUUCGGAUCUGCACUU: -1.13
UCAAGUCCUGUGCUACACAUCGUAUGUACCGAAUCGGAAGGGAAGGGGAAGGGGAAAGUAUUAUGUUACGCCGUUCGGAUCUGCACUUCC: 0.711
CACAGACAACACGCACCCACACAGACACACAGGGAAGGGGUUGGGAUGGGGACAGGGUGCACAGCAGGGCGGGGUAGGACCCCAGCCCCU: 1.27

Series 2
Target: Interferon regulatory factor 7, full length, phosphomimetic (IRF7, Homo sapiens, UniProt Q92985, residues 1-503, S471D/S472D/S475D/S476D/S477D/S483D/S484D/S487D)
Method: protein-binding microarray
Form: double-stranded DNA, one strand shown
Sample: in vitro
Tested at: 2200 nM top
Setting: 60-bp whole probe
With: salmon DNA 0.4 mg/ml
Relative to: random background probes
Direction: higher = stronger binding
Quantity: fitted relative affinity
Shared flanks, not repeated: GCCTAGCAC … GTCTTGATTCGCTTGACGCTGCTG
Residues (chain): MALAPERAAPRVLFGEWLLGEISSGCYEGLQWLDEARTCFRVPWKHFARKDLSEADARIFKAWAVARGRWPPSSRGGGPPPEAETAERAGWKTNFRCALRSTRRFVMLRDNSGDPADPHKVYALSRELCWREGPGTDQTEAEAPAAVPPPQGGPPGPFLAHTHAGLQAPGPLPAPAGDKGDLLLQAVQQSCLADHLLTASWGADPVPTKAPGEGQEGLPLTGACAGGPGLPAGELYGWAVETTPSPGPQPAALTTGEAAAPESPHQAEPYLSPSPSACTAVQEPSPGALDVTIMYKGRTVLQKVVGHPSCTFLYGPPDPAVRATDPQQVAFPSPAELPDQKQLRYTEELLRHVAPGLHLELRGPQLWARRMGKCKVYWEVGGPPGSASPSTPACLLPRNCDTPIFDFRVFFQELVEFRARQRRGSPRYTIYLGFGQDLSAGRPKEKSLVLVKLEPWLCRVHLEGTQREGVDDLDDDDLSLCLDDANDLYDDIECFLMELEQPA
TTAGGTATCGACACTGGTTTAGTGCTA: 0.11 z-score
GTCGATTCCAGTTTCGAGACGTGCTAG: 4.87 z-score
TTAGATTTCGGTATCGATTAGTGCTAG: 3.49 z-score
GACGATATCAGTCTCGAGATGTGCTAG: 0.379 z-score
CTACGTCTGATTTTGCTTTCGTGCTAG: 2.93 z-score
TTAGGTATCGGGTTTCAGTTAGTGCTA: 1.32 z-score
TAGGCTCCAGGTTCTCTGAAGGTGCTA: -0.453 z-score

Series 3
Target: Sal-like protein 4, full length isoform B (SALL4, Homo sapiens, UniProt Q9UJQ4-2, residues 1-616)
Method: universal PBM
Form: double-stranded DNA, one strand shown
Sample: in vitro
Tested at: not given
Setting: 8-mer, flanks averaged, mean of replicates
Direction: higher = stronger binding
Quantity: E-score
Target sequence (chain): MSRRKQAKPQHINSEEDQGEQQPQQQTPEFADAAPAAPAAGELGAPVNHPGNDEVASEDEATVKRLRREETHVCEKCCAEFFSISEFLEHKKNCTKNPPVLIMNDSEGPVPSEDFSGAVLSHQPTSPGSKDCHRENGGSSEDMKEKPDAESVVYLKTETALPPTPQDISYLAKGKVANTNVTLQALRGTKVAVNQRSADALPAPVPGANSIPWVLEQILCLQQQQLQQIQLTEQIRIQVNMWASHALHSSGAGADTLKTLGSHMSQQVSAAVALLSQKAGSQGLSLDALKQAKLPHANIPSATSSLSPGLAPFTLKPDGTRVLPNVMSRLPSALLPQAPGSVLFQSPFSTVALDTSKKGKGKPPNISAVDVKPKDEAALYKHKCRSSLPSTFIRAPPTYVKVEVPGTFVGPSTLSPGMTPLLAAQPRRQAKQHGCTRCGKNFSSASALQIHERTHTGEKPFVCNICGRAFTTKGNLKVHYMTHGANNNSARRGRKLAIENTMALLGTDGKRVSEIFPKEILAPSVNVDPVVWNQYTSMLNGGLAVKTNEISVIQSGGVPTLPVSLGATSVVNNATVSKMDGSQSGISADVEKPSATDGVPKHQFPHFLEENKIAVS
GACGAGTA: 0.0192
CCCTCACA: -0.091
CCGGGGAA: -0.279
GTGAAAAA: 0.249

Other studies, line by line
PhoQ, residues 284 288 289 292 302 303 NLALSC  fold induction (PhoP, residues 12 14 15 18 19 NMSSL (Escherichia coli, UniProt P23836); Sort-seq, item: YFP reporter; E. coli; PhoQ-PhoP variant library, with: 10 µM Mg2+; relative to: high Mg2+ state, higher = stronger signaling): 1.17

For quick reference, copied from above (series 1):
AAGUCCUGUGCUACACAUCGUAUGUACCGAAUCAAAUUUAAAUUUAAAUUUUUAAAAAAGUAUUAUGUUACGCCGUUCGGAUCUGCACUU: -1.13
